Published values gathered from unrelated publications.
A part holds a random share of what one study measured. Positions count from the first letter of the parent shown.

Set 1
Target: Interferon regulatory factor 7, full length, phosphomimetic (IRF7, Homo sapiens, UniProt Q92985, residues 1-503, S101K/S471D/S472D/S475D/S476D/S477D/S483D/S484D/S487D)
Technique: protein-binding microarray
Form: double-stranded DNA, one strand shown
Medium: in vitro
Concentration: 250 nM
Setting: 60-bp whole probe
With: salmon DNA 0.4 mg/ml
Relative to: random background probes
Reading: higher = stronger binding
Endpoint: log fluorescence
Constant ends, left off below: GCCTAGCAC … GTCTTGATTCGCTTGACGCTGCTG
Target sequence (chain): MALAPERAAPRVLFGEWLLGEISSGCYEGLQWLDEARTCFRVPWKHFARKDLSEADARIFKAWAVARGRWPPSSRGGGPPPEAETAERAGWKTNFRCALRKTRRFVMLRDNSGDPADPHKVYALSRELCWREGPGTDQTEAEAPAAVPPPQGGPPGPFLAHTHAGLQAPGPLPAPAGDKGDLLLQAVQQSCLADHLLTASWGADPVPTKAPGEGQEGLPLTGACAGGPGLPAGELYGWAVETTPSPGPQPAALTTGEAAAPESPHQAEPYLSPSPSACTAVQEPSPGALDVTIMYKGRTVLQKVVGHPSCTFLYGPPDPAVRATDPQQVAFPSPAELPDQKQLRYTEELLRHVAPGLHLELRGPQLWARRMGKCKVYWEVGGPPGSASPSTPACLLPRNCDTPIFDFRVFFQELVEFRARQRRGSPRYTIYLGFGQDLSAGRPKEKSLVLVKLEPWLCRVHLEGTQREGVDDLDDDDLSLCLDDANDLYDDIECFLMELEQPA
TTAGGACCGGACTTTCGGTTAGTGCTA: 1.58 z-score
TTAGGTATCGTCACTGGGTTAGTGCTA: -0.241 z-score
AACGGACTGGACACTGGGGACGTGCTA: -0.353 z-score
GACCGACTGCTTCTCCTGACGTGCTAG: -0.379 z-score
CACCCTTGGAAGTATGACTCTGTGCTA: -0.143 z-score
GACGGTTTCGCCACTGGGGACGTGCTA: 1.47 z-score
TCATGTTTCTAATATTCTACTGTGCTA: 1.12 z-score
CTGCTAGGGCACACAAGTCAGTGCTAG: -0.654 z-score
GACGGTTTCGTTTTCGGGACGTGCTAG: 13.4 z-score
TTAGATTTCGGCACTGGATTAGTGCTA: 0.0386 z-score

Set 2
Target: CCNA2, cyclin fold, Cln2 fusion (human)
Technique: yeast growth competition, sequencing
Medium: yeast
Setting: weak parent motif
Relative to: not given
Reading: higher = stronger binding
Endpoint: normalised enrichment score
Starting sequence: MASTL docking peptide (human); PMIAKNLMCELDE
PMIAKNLMCELKE [D12K]: 0.242
PMIAKNLMCEGDE [L11G]: -0.00987
PMIAKNLMIELDE [C9I]: -0.206
PMIAKNLMCELNE [D12N]: 0.0573
PMIAKNLMCETDE [L11T]: -0.292
PMIAKSLMCELDE [N6S]: -0.417
PMISKNLMCELDE [A4S]: -0.292

Set 3
Target: RNA binding protein fox-1 homolog 2, RRM domain, GST-SBP tag (RBFOX2, Homo sapiens, UniProt O43251-10, residues 100-194)
Technique: RNA Bind-n-Seq
Form: RNA
Medium: in vitro
Concentration: 365 nM
Setting: natural RNA segment, single round, ends assumed
Relative to: no-protein control
Reading: higher = stronger binding
Endpoint: RBNS enrichment (R)
Constant ends, left off below: GGGAGUUCUACAGUCCGACGAUC … UGGAAUUCUCGGGUGCCAA
Construct (chain): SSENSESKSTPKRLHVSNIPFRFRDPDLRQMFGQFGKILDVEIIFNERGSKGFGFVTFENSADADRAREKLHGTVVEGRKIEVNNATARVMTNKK
UACUGUAAAGUGGAAUUUCAGGAAGGCUUGUGUGAACCGUUGCGCAUAAAUAAACCCUUUCUACCGGGCUGUGCAACGCUGGUCCUUUCUUGGGCGCUGGUGUGGGGGAU: 0.327
UGGCCAGAGGCAUUUUUUAAAUCAGGCCCAAUAUCAGUAUUCUUUUUGUGUGUGCCAAUUUUGUUAUCACAUCCCUAUGAAGUUGAAAAAUAAAGUUAAUUUUGACCAAA: 0.467
CAUCUCUUGUUCCCACUACUGAAUUCUUAUAAAGUGGUGGCAAGAUAGGGAAGGGAUAAUCUGAGAAUUUUUAAAAGAUGAUUUAAUGAGAAGAAGCACAAUUUUGAUUU: 0.983
CUUUGAGUCUUUGAAAGCUUGAUGGCCUCUGCACCCUACUGAAAACCCCCUAAGCCAGCAGGAGCAGGGUAUGCAGAGGCUUUGCCUCUGCUGGCUUAGGGUGAGAAGUA: 0.761
GGUGCUGCCUCUACCUGACACUCCCUUGGGCUCCCUGUAACCUCUUCAGAGGCCCUCGCUGCCAGCUCUGUAUCAGGACCCAGAGGAAGGGGCCAGAGGCUCGUUGACUG: 0.384
GCUGAAACUGAGCAUCUUGCACAGGGCUCCGAGACUGUACAGGCUACCCCAGAGAGCCUUGAAGUUCCUGAAGUCACAGAGGAUGUAGACCGUGCCACCACAUGCCAGGU: 0.767
CGUCAUGGCACUAAGCCACUCAGACCAGCUACCUGUGACCCUGGUUCUCCAAGAAGCAGACGUUGGUCUAAGCCUUCAAGAGCUGCCUUAGGGUUUGGGAGAAGUUGGAA: 0.244
UGUAUGUGUGUGUACAUGCGCAUACAUAGAUAUAUGCACACAUAGAUUAUGUGCUUGACCACUGCCUUUUAAAACUUUAAAUUAAAUAAAACAUUGGGGAUGAUUCAAUU: 0.455
CAUACAGAAGAGACAUCAGGGGUGUGGGUAAAAUUGUGUGUGUGCCUCCUUGACGUGGACAAUCACUAGACUCAGUGCUCUGAGAAAAUCUGCUAUUUCUGUUGAAUGGG: 0.433
UACCACUGAAGUAGAAUUGAUUGUUCAGCUGGAGCCCAGAGAAUUUAAUUUAAUGUUUUUUCUUUGUACCUGAUGUGAAUUCUAGCAACCUUUGUUAGGAAAAAGCACAG: 0.435
CUCUCCCUCCUGCUUUCUUUUUGGAGCUUCUUUGGGUCAAAGACAUGGAAGUUGCUUCAGAUAUCUGAUACUGUGAAUGUUUGAACAUAUCCGUGGCCUUCACCUCUCCA: 0.553

Other studies, line by line
PhoQ, residues 284 288 289 292 302 303 NLSRDF  fold induction (PhoP, residues 12 14 15 18 19 GHCSL (Escherichia coli, UniProt P23836); Sort-seq, measured: YFP reporter; E. coli; PhoQ-PhoP variant library, with: 10 µM Mg2+; relative to: high Mg2+ state, higher = stronger signaling): 14.4

Repeated from above (set 1):
CTGCTAGGGCACACAAGTCAGTGCTAG: -0.654 z-score
GACCGACTGCTTCTCCTGACGTGCTAG: -0.379 z-score
